Published values of several laboratories.
Several values in a cell are separate wells, animals, samples, runs or records. Values after ≈ are worked out from the molar mass of the structure shown.
CDK2: Cyclin-dependent kinase 2 (CDK2, Homo sapiens, UniProt P24941)
Sequence of UniProt P35462 (whole entry, looked up): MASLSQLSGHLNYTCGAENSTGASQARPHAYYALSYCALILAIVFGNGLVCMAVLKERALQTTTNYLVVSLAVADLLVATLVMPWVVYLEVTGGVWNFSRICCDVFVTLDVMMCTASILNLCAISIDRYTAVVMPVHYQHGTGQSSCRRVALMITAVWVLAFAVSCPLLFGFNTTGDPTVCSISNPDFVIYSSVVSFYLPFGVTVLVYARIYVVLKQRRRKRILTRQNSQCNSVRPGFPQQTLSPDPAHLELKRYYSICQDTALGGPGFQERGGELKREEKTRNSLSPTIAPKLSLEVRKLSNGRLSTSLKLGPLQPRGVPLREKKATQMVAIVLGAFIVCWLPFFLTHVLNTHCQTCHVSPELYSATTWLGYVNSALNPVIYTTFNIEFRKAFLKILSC

| SMILES | target or system | test | system | conditions | scale | endpoint | result |
| --- | --- | --- | --- | --- | --- | --- | --- |
| C=C[C@]1(C)C[C@@H](OC(=O)CSCCN(CC)CC)[C@]2(C)[C@H](C)CC[C@]3(CCC(=O)[C@H]32)[C@@H](C)[C@@H]1O | Mycoplasma gallisepticum | – | infected chickens, lung | intramuscular, 40 mg/kg | relative to: 0 h | reduction in lung mycoplasma load | 2.35 log10 CFU/mL and 2.44 log10 CFU/mL and 4.13 log10 CFU/mL and 2.79 log10 CFU/mL and 2.4 log10 CFU/mL and 2.39 log10 CFU/mL |
| COC(=O)[C@@H](CCSC)NCc1cc2ccccc2nc1SC | Pseudomonas aeruginosa | – | – | 2 µg/mL, without pentamidine | relative to: control | growth | 95.1% |
| Cc1cccc(NS(=O)(=O)c2cc(C(=O)Nc3ccccc3C(=O)N3CCOCC3)ccc2Cl)c1 | CDK2 | binding | – | – | – | Kd | > 100 µM |
| CC1=CC(=O)CC(C)(C)[C@@]1(O)/C=C/C(C)=C\C(=O)O | Arabidopsis thaliana | – | PYL4 overexpression, seeds | 1 µM | – | number of germinated seeds | 4 and 2 |
| CN[C@H](CC(C)C)C(=O)N[C@H]1C(=O)N[C@@H](CC(N)=O)C(=O)N[C@H]2C(=O)N[C@H]3C(=O)N[C@H](C(=O)N[C@H](C(=O)O)c4cc(O)cc(O)c4-c4cc3ccc4O)[C@H](O)c3ccc(c(Cl)c3)Oc3cc2cc(c3O[C@@H]2O[C@H](CO)[C@@H](O)[C@H](O)[C@H]2O[C@H]2C[C@](C)(N)[C@H](O)[C@H](C)O2)Oc2ccc(cc2Cl)[C@H]1O | Streptococcus pyogenes | – | ATCC 19615 | 1 strain | – | MBC range | 1 µg/mL (≈ 0.69 µM) |
| CC(C)n1ncc2c(C(=O)NCC3(C)CNC3)cc(C3CC3)nc21 | Enterovirus D68 | cytopathic effect | RD, US/KY/14-18953 | 1500 nM | – | cell protection | 99% and 96.9% and 95.9% |
| O=C(N1CCc2ccccc21)n1ccnn1 | Arabidopsis thaliana | – | wild type, seedlings | 10 µM, continuous red light, together with: 0.3 µM karrikin KAR2 | – | hypocotyl length | 6.42 mm |
| Oc1ccccc1-c1n[nH]cc1-c1ccnc2ccccc12 | TPK2 (Candida albicans) | kinase binding, MIB/MS competition | Candida albicans lysate | 10 µM | relative to: DMSO | log2 fold change | 0.44 |
| Cn1cc(-c2ccc(-c3cncc(Cl)c3N3CCC4(CCNC4=O)CC3)cc2)cn1 | COLO 205 | gene expression, microarray, item: CFL2 mRNA | – | concentration not given, 6 h | relative to: untreated cells | log2 fold change | -1.72 |
| N=C(N)c1ccc(OCCC(CCOc2ccc(C(=N)N)cc2)c2ccccc2)cc1 (stereo not shown) | Escherichia coli | checkerboard | mcr-2 polymyxin-resistant | concentration not given, 20 h, together with: rifampicin | – | MIC of compound in combination | 12.5 µg/mL |
| CC(=O)NC[C@H]1CN(c2ccc(N3CCOCC3)c(F)c2)C(=O)O1 | Staphylococcus | – | MRSA-11, mouse systemic infection | intravenous | survival | ED50 | 17 mg/kg |
| Cc1nc(NCCNc2ccnc3cc(Cl)ccc23)nc(-c2ccccc2[N+](=O)[O-])c1C(=O)OC(C)C | feline herpesvirus | viral replication | CRFK | – | – | EC50 | > 100 µM |
| c1coc(-c2n[nH]cc2-c2ccnc3ccccc23)c1 | orf19.3456 Candida albicans | kinase binding, MIB/MS competition | Candida albicans lysate | 10 µM | relative to: DMSO | log2 fold change | -0.36 |
| Cc1nc2ncnn2c(O)c1NS(=O)(=O)c1ccc(Br)cc1 | CDK2 | binding | – | – | – | Kd | > 100 µM |
| Cc1[nH]c(C)c(S(=O)(=O)Nc2c(Cl)cc(C(F)(F)F)cc2Cl)c1C(=O)N1CCC(F)(F)C1 | DRD3 (Homo sapiens, UniProt P35462) | Go activation, antagonist, BRET | – | together with: dopamine | – | IC50 | > 100 µM |
| CN[C@H](CC(C)C)C(=O)N[C@H]1C(=O)N[C@@H](CC(N)=O)C(=O)N[C@H]2C(=O)N[C@H]3C(=O)N[C@H](C(=O)N[C@H](C(=O)O)c4cc(O)cc(O)c4-c4cc3ccc4O)[C@H](O)c3ccc(c(Cl)c3)Oc3cc2cc(c3O[C@@H]2O[C@H](CO)[C@@H](O)[C@H](O)[C@H]2O[C@H]2C[C@](C)(N)[C@H](O)[C@H](C)O2)Oc2ccc(cc2Cl)[C@H]1O | Streptococcus agalactiae | – | 25 clinical isolates | – | – | MIC50 | 0.5 µg/mL (≈ 0.345 µM) |
| CC(=O)NC[C@H]1CN(c2ccc(N3CCOCC3)c(F)c2)C(=O)O1 | Enterococcus faecium | – | NR-31937 | – | – | MIC | 2.96 µM (≈ 0.999 µg/mL) |
| CC1(C)S[C@@H]2[C@H](NC(=O)[C@H](N)c3ccccc3)C(=O)N2[C@H]1C(=O)O | Streptococcus agalactiae | – | 25 clinical isolates | – | – | MIC50 | 1 µg/mL (≈ 2.86 µM) |
| Cc1ccc(CCC(=O)Nc2nnc(S(N)(=O)=O)s2)cc1 | Enterococcus faecium | – | NR-31909 | – | – | MIC | 0.046 µM (≈ 0.015 µg/mL) |

For quick reference, copied from above:
| SMILES | target or system | test | system | conditions | scale | endpoint | result |
| --- | --- | --- | --- | --- | --- | --- | --- |
| c1coc(-c2n[nH]cc2-c2ccnc3ccccc23)c1 | orf19.3456 Candida albicans | kinase binding, MIB/MS competition | Candida albicans lysate | 10 µM | relative to: DMSO | log2 fold change | -0.36 |
| Cc1nc2ncnn2c(O)c1NS(=O)(=O)c1ccc(Br)cc1 | CDK2 | binding | – | – | – | Kd | > 100 µM |
| Cc1[nH]c(C)c(S(=O)(=O)Nc2c(Cl)cc(C(F)(F)F)cc2Cl)c1C(=O)N1CCC(F)(F)C1 | DRD3 (Homo sapiens, UniProt P35462) | Go activation, antagonist, BRET | – | together with: dopamine | – | IC50 | > 100 µM |
